Assay results pooled from the literature.
Each line is one published result; not all experiments were run side by side. Several values in a cell are separate wells, animals, samples, runs or records. ± gives the spread as reported.
Luciferin 4-monooxygenase: Luciferin 4-monooxygenase (Photinus pyralis, UniProt P08659)
Chain of UniProt P08659 (whole entry, looked up): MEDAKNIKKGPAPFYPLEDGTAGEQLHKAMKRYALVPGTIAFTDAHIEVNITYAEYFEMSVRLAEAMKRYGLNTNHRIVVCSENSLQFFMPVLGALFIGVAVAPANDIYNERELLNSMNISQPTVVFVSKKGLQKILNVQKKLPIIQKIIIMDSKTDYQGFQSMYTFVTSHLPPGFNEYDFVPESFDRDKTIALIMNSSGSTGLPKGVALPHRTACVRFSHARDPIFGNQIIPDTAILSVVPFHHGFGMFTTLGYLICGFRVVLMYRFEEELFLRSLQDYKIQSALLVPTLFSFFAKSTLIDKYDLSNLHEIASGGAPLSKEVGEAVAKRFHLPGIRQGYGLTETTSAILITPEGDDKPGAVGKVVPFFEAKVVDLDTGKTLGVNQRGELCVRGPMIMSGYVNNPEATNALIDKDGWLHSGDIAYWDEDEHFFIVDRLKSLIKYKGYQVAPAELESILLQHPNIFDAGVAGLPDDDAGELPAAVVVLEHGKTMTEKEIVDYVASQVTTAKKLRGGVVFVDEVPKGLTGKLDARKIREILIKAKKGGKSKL
P4HB: Protein disulfide-isomerase (P4HB, Homo sapiens, UniProt P07237)
Chain of UniProt P07237 (whole entry, looked up): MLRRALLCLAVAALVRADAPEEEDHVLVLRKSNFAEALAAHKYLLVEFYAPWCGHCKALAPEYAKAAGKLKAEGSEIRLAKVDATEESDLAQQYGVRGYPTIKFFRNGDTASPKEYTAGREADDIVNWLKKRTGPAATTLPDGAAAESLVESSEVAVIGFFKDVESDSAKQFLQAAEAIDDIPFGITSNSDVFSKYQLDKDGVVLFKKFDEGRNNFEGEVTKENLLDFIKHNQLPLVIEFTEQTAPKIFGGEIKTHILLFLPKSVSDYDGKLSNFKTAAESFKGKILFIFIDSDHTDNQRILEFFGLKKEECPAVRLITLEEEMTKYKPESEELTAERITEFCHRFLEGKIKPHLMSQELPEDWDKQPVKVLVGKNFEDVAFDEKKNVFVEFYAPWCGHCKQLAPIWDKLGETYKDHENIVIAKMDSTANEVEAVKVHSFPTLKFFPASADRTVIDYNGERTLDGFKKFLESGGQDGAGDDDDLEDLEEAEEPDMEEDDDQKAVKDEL
Palmitoyl-protein thioesterase 1: Palmitoyl-protein thioesterase 1 (Homo sapiens, UniProt P50897)
Chain of UniProt P50897 (whole entry, looked up): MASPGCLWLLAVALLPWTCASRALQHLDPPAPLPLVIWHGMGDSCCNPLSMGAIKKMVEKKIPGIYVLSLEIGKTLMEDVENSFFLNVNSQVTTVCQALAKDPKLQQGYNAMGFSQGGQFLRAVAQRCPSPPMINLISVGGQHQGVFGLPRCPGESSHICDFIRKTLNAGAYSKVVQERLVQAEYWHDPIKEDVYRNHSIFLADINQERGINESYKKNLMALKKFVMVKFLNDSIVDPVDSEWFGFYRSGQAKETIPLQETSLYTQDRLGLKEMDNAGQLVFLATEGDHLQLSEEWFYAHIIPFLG
DRD1: D(1A) dopamine receptor (DRD1, Homo sapiens, UniProt P21728)
Chain of UniProt P21728 (whole entry, looked up): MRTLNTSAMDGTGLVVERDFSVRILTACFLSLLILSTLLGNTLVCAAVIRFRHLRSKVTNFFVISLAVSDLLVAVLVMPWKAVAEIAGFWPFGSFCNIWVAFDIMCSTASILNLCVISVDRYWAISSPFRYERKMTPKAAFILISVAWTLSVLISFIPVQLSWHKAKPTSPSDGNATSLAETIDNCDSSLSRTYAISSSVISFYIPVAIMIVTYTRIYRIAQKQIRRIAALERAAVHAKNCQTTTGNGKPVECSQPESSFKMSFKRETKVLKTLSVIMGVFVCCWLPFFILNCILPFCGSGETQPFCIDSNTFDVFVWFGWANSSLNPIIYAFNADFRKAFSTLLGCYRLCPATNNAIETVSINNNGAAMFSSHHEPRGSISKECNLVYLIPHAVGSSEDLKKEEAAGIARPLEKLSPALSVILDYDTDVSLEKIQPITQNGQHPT
HTR1E: 5-hydroxytryptamine receptor 1E (HTR1E, Homo sapiens, UniProt P28566)
Chain of UniProt P28566 (whole entry, looked up): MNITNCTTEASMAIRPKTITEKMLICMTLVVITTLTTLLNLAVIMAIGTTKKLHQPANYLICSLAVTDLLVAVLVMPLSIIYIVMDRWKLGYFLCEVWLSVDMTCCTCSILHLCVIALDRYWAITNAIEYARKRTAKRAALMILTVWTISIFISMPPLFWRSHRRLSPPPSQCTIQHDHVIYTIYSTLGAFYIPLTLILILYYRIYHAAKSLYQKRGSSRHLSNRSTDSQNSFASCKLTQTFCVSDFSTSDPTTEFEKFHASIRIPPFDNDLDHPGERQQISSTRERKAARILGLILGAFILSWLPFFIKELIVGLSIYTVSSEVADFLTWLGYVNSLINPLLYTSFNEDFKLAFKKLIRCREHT
Adhesin FmlH lectin domain: Adhesin FmlH, lectin domain (Escherichia coli, UniProt Q1RBS0)
Chain of UniProt Q16853 (whole entry, looked up): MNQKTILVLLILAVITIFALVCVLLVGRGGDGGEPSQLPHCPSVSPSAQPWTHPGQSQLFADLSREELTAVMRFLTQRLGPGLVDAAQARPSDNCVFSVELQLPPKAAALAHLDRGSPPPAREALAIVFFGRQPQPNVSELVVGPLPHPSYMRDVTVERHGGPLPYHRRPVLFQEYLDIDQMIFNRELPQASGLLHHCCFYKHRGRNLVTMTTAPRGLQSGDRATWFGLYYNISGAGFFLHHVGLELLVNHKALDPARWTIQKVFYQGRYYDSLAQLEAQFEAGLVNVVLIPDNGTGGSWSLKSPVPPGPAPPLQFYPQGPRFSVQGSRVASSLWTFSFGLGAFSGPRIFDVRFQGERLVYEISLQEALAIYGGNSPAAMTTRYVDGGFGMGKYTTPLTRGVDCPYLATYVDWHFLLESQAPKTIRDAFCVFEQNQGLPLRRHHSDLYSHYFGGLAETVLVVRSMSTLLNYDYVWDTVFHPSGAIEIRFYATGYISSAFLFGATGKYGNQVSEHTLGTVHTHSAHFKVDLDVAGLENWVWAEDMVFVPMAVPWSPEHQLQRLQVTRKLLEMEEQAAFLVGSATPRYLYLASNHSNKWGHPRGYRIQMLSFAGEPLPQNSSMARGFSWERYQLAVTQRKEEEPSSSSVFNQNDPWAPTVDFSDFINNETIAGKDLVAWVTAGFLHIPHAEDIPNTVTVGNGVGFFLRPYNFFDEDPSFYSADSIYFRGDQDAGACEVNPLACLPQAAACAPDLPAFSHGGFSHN
Chain of UniProt Q9HCR9 (whole entry, looked up): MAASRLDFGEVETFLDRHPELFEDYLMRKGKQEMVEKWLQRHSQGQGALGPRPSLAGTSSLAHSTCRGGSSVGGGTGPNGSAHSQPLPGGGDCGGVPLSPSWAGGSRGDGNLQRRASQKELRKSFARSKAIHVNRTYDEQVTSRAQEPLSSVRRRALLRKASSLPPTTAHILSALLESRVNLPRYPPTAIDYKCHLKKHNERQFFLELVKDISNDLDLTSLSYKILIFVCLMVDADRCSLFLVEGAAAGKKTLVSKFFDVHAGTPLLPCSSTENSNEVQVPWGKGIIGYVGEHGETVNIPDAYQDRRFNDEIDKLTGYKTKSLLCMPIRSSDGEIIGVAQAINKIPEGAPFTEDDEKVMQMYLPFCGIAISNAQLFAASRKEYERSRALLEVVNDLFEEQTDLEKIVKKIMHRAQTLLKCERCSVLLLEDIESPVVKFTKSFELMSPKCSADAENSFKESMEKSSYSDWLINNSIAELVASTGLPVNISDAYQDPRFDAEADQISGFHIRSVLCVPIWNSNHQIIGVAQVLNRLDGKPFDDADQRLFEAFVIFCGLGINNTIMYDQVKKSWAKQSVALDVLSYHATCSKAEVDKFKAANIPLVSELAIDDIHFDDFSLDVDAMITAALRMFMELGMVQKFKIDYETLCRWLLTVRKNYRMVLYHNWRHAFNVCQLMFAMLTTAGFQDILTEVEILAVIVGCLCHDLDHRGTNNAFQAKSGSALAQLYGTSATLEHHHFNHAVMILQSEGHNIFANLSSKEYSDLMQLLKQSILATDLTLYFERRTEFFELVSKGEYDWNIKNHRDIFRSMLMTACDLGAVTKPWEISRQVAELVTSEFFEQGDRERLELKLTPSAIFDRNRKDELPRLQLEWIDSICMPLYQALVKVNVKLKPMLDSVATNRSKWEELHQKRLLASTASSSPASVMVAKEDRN
Chain of UniProt Q16581 (whole entry, looked up): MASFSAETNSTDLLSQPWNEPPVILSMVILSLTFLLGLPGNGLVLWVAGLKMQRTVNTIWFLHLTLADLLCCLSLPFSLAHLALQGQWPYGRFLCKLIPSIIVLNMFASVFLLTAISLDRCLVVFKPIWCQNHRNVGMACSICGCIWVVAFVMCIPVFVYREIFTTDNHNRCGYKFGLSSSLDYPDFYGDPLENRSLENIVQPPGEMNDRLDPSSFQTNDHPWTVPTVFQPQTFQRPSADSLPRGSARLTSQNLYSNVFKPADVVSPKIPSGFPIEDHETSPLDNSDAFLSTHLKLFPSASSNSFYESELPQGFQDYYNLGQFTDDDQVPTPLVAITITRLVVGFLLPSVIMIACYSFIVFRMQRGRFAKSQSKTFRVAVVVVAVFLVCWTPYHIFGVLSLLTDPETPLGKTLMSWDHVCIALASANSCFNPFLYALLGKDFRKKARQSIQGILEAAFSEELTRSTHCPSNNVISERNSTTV
Chain of UniProt O95747 (whole entry, looked up): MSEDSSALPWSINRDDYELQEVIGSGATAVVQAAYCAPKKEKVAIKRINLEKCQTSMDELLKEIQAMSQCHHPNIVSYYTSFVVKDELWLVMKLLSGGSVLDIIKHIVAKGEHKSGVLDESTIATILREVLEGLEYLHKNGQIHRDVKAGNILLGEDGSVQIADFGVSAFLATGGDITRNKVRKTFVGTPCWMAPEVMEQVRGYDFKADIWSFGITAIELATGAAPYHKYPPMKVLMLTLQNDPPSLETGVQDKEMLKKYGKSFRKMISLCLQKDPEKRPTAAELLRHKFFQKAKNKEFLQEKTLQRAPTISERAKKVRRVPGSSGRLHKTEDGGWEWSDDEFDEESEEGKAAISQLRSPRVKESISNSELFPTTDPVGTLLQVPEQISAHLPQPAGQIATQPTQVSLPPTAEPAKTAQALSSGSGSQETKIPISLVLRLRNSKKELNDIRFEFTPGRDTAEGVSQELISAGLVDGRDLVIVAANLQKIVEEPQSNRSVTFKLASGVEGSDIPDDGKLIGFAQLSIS

CCN(O)N=Nc1ccc(S(=O)(=O)Nc2cc(C)on2)cc1
inhibition (α-glucosidase, rat intestine; enzyme activity; 240 µg/mL, with: 4-nitrophenyl α-D-glucopyranoside): 62.5 ± 0.01%

CN(C)CCCN1c2ccccc2Sc2ccc(C(F)(F)F)cc21
inhibition (Luciferin 4-monooxygenase; luciferase luminescence, inhibitor; cell-free; 50 µM, counter-screen): 15.2%

O=C(OC[C@H]1O[C@@H](OC(=O)c2cc(O)c(O)c(O)c2)[C@H](OC(=O)c2cc(O)c(O)c(O)c2)[C@@H](OC(=O)c2cc(O)c(O)c(O)c2)[C@@H]1OC(=O)c1cc(O)c(O)c(O)c1)c1cc(O)c(O)c(O)c1
inhibition (P4HB; insulin reduction; 20 µM): inhibited

CCN1CCCC1CNC(=O)CCC1CCN(C(=O)CSc2ncccn2)CC1 (stereo not shown)
inhibition (Luciferin 4-monooxygenase; luciferase luminescence, inhibitor; cell-free; 50 µM, counter-screen): 5.08%

COc1cc(C(=O)NS(=O)(=O)c2ccccc2C)ccc1Cc1cn(C)c2ccc(NC(=O)OC3CCCC3)cc12
inhibition (Volume-regulated anion channel subunit LRRC8C, part LRRC8A IL1 chimera (LRRC8C, Homo sapiens, UniProt Q8TDW0, C43G/S11C); ion current, inhibitor, whole-cell patch clamp; HCT LRRC8-/- cells; 3 µM, +100 mV): 9.51% and 11% and 15.2% and 6.77% and 23.8%

O=c1c(O)c(-c2ccc(O)cc2)oc2ccccc12
inhibition (Palmitoyl-protein thioesterase 1; Spectrum Collection screen; concentration not given, with: substrate 20 µM): 64.2%

N=C(N)c1ccc(OCCCCCOc2ccc(C(=N)N)cc2)cc1
inhibition (Vitamin K-dependent protein C (PROC, Homo sapiens, UniProt P04070); concentration not given): > 90%

COc1ccc(S(=O)(=O)N(CC(=O)O)Cc2ccc(CN(CC(=O)O)S(=O)(=O)c3ccc(OC)cc3)c3ccccc23)cc1
inhibition (Kelch-like ECH-associated protein 1, Kelch domain (KEAP1, Homo sapiens, UniProt Q14145); binding, fluorescence polarization competition; 50 µM): no inhibition

O=S(=O)(c1cccc2cnccc12)N1CCCNCC1
inhibition (Palmitoyl-protein thioesterase 1; Spectrum Collection screen; concentration not given, with: substrate 20 µM): 62%

CCCCOc1c(O)cc(Br)c2c1CN1CCc3cc(OCC(F)F)c(O)cc3[C@@H]1C2
inhibition (DRD1; cAMP level, antagonist, TR-FRET; U2OS expressing human D1R; concentration not given, with: dopamine 10 nM): 95 ± 1%

CN(O)N=Nc1ccc(S(=O)(=O)Nc2nccs2)cc1
inhibition (α-glucosidase, rat intestine; enzyme activity; 120 µg/mL, with: 4-nitrophenyl α-D-glucopyranoside): 27.5 ± 0.59%

Cc1ccc(C(=O)Nc2ccc3ccccc3c2)o1
inhibition (ATP-sensitive inward rectifier potassium channel 10 (Homo sapiens, UniProt P78508); ion current, whole-cell patch-clamp; 10 µM): 1.58%

COc1ccc2c(c1)CN(CCCN1CCN(c3ccccc3OC)CC1)C2=O
inhibition (DRD1; radioligand binding; concentration not given, with: [3H]SCH23390): 54.5%

COc1ccc(F)cc1C(=O)NCc1ccc(-c2nn([C@@H](C)C(F)(F)F)c(N)c2C(N)=O)cc1
inhibition (Serine/threonine-protein kinase OSR1 (OXSR1, Homo sapiens, UniProt O95747); target engagement, competitive chemoproteomics; human PBMCs; 0.01 µM): 28.2%

O=C(CN1CCO[C@H](COc2cccnc2)C1)N1CCc2ccccc21
inhibition (DRD1; radioligand binding; concentration not given, with: [3H]SCH23390): 2.5%

CN1CCC(NC(=O)c2cccc3c2CCN3C(=O)Nc2ccc(F)cc2)CC1
inhibition (Luciferin 4-monooxygenase; luciferase luminescence, inhibitor; cell-free; 50 µM, counter-screen): 33.9%

COc1cc2c(cc1OC)C(=O)N(CCCCN1CCN(c3ccccc3OC)CC1)C2
inhibition (HTR1E; radioligand binding; concentration not given, with: [3H]5-HT): 16.5%

Nc1ncnc2[nH]cnc12
inhibition (Gelsolin, peptide (GSN, Homo sapiens, UniProt P06396, D214Y); amyloid aggregation, ThT fluorescence; 100 µM, 12 h, 37 °C, cpd to peptide 1:1 molar): 23%

O=C(Nc1cccc2c(=O)cc(-c3nnn[nH]3)oc12)c1ccc(OCCCCc2ccccc2)cc1
inhibition (Volume-regulated anion channel subunit LRRC8C, part LRRC8A IL1 chimera (LRRC8C, Homo sapiens, UniProt Q8TDW0, L136K); ion current, inhibitor, whole-cell patch clamp; HCT LRRC8-/- cells; 0.3 µM, +100 mV): 72.2% and 61.3% and 75.1% and 73.5% and 33.7%

Cn1nnc2c(C(N)=O)ncn2c1=O
inhibition (Palmitoyl-protein thioesterase 1; Spectrum Collection screen; concentration not given, with: substrate 20 µM): 77.3%

C#Cc1cc(-c2cc(Nc3nc(N[C@@H](C)c4ccc(F)cn4)ncc3Cl)n[nH]2)ccc1C=O
inhibition (TGF-beta receptor type-1 (TGFBR1, Homo sapiens, UniProt P36897, T204D); enzyme activity, inhibitor; 0.2 µM): 17.8%

CC(=O)[C@]1(O)Cc2c(O)c3c(c(O)c2[C@@H](O[C@H]2C[C@H](N)[C@H](O)[C@H](C)O2)C1)C(=O)c1ccccc1C3=O
inhibition (Luciferin 4-monooxygenase; luciferase luminescence, inhibitor; cell-free; 50 µM, counter-screen): 60%

COc1cc(-c2cc(C(C)=O)n3ccccc23)cc(OC)c1Cn1ccnc1
inhibition (Peregrin (BRPF1, Homo sapiens, UniProt P55201); 1 µM): 3.62%

O=C(CN1CCO[C@H](COc2cccc(Cl)c2)C1)N1CCc2ccccc21
inhibition (HTR1E; radioligand binding; concentration not given, with: [3H]5-HT): -16.3%

Cc1noc(NS(=O)(=O)c2ccc(N=NN(O)c3ccccc3)cc2)c1C
inhibition (α-glucosidase, rat intestine; enzyme activity; 180 µg/mL, with: 4-nitrophenyl α-D-glucopyranoside): 45 ± 0.18%

c1cncc(OC[C@@H]2CN(CCN3CCc4ccccc43)CCO2)c1
inhibition (HTR1E; radioligand binding; concentration not given, with: [3H]5-HT): -10.6%

CCc1nn(C)c2nc(-c3ccc(C(=O)O)cc3)nc(NCc3ccc(F)cc3)c12
inhibition (Dual 3',5'-cyclic-AMP and -GMP phosphodiesterase 11A (PDE11A, Homo sapiens, UniProt Q9HCR9); enzyme activity; 10 µM, with: [3H]cAMP): 59.1%

CO[C@H]1/C=C/O[C@@]2(C)Oc3c(C)c(O)c4c(O)c(c(/C=N/N5CCN(C6CCCC6)CC5)c(O)c4c3C2=O)NC(=O)/C(C)=C\C=C\[C@H](C)[C@H](O)[C@@H](C)[C@@H](O)[C@@H](C)[C@H](OC(C)=O)[C@@H]1C
inhibition (Palmitoyl-protein thioesterase 1; Spectrum Collection screen; concentration not given, with: substrate 20 µM): 76.2%

Cc1cccc(N(O)N=Nc2ccc(S(=O)(=O)Nc3onc(C)c3C)cc2)c1
inhibition (α-glucosidase, rat intestine; enzyme activity; 20 µg/mL, with: 4-nitrophenyl α-D-glucopyranoside): 8.75 ± 0.166%

Cc1ccnc(C)c1OC[C@H]1CN(CCN2CCc3ccccc32)CCO1
inhibition (DRD1; radioligand binding; concentration not given, with: [3H]SCH23390): 33.9%

CCCCCC/C=C1\C=C(C(F)(F)F)c2cc3c(cc21)OCCO3
inhibition (P4HB; enzyme activity, inhibitor, insulin reduction; concentration not given, biochemical): no effect

Cc1cc(NS(=O)(=O)c2ccc(N=NN(O)c3ccccc3)cc2)no1
inhibition (α-glucosidase, rat intestine; enzyme activity; 300 µg/mL, with: 4-nitrophenyl α-D-glucopyranoside): 55 ± 0.18%

CN1CCN(c2cc(-c3ccncc3)c(-c3ccc4ccccc4c3)nn2)CC1
inhibition (C3a anaphylatoxin chemotactic receptor (C3AR1, Homo sapiens, UniProt Q16581); antagonist, FLIPR; 10 µM): 1.2%

Cn1cccc1C(=O)N1CCCC1c1ccc(C(=O)N2CCC(C)(C)C2)s1 (stereo not shown)
inhibition (Luciferin 4-monooxygenase; luciferase luminescence, inhibitor; cell-free; 50 µM, counter-screen): 65.1%

O=C(NO)c1ccc(CN2CCCCc3ccccc32)c(F)c1
inhibition (Delta-type opioid receptor (OPRD1, Homo sapiens, UniProt P41143); radioligand binding, radioligand displacement; 10 µM, mean of replicates): 14.2%

CN(C(=O)n1cnc(-c2ccc[n+]([O-])c2)c1)C1CCCCC1
inhibition (glutamate decarboxylase; enzyme activity; concentration not given): 11.1%

CCCN(O)N=Nc1ccc(S(=O)(=O)Nc2cc(C)on2)cc1
inhibition (α-glucosidase, rat intestine; enzyme activity; 120 µg/mL, with: 4-nitrophenyl α-D-glucopyranoside): 32.5 ± 0.12%

COc1ccc2c(c1)C(=O)N(CCN1CCN(c3ccccc3OC)CC1)C2
inhibition (DRD1; radioligand binding; concentration not given, with: [3H]SCH23390): 29.3%

Cc1ccc(N(O)N=Nc2ccc(S(=O)(=O)Nc3cc(C)on3)cc2)cc1
inhibition (α-glucosidase, rat intestine; enzyme activity; 300 µg/mL, with: 4-nitrophenyl α-D-glucopyranoside): 52.5 ± 0.09%

CCOc1ccc(C2=NC3(CCN(C(C)=O)CC3)NC(c3ccccc3O)C2)cc1 (stereo not shown)
inhibition (Luciferin 4-monooxygenase; luciferase luminescence, inhibitor; cell-free; 50 µM, counter-screen): 12%

OC[C@H]1O[C@@H](Oc2ccccc2)[C@H](O)[C@@H](O)[C@H]1O
inhibition (Adhesin FmlH lectin domain; binding to desialylated mucin, ELISA competition; UPEC UTI89; 10 µM, with: desialylated bovine submaxillary mucin): 15.5 ± 4.2%

Cc1nc(-c2ccc(C(=O)N3CCC(C)CC3)cc2)cs1
inhibition (Luciferin 4-monooxygenase; luciferase luminescence, inhibitor; cell-free; 50 µM, counter-screen): 25%

CC[C@@H]1[C@H](F)C(=O)N[C@@H]1COc1nccc2cc(C(N)=O)c(OC)cc12
inhibition (Dual specificity protein kinase CLK2 (CLK2, Homo sapiens, UniProt P49760); ATP-site probe binding, ActivX profiling; THP-1 cell lysate; 0.01 mM, Lys2 site): 26.8%

CC(=O)N[C@H]1[C@H](Oc2ccc([N+](=O)[O-])cc2)O[C@H](CO)[C@@H](O)[C@@H]1O[C@@H]1O[C@H](CO)[C@H](O)[C@H](O)[C@H]1O
inhibition (Adhesin FmlH lectin domain; binding to desialylated mucin, ELISA competition; UPEC UTI89; 100 µM): -3.6 ± 1%

CCN(O)N=Nc1ccc(S(=O)(=O)Nc2onc(C)c2C)cc1
inhibition (α-glucosidase, rat intestine; enzyme activity; 300 µg/mL, with: 4-nitrophenyl α-D-glucopyranoside): 60 ± 0.013%

CCCNC(C)(C)COC(=O)c1ccccc1
inhibition (Palmitoyl-protein thioesterase 1; Spectrum Collection screen; concentration not given, with: substrate 20 µM): 61.6%

O=C1c2ccccc2CCN1CCCCN1CCN(c2ccccn2)CC1
inhibition (DRD1; radioligand binding; concentration not given, with: [3H]SCH23390): 53.9%

COc1ccc2c(c1)C(CC(=O)O)=C/C2=C\c1ccc(-c2ccccc2)cc1
inhibition (Prostaglandin G/H synthase 1 (PTGS1, Ovis aries, UniProt P05979); enzyme activity; 4 µM, with: 5 µM arachidonic acid): 38 to 49%

NC/C(=C\F)COc1cccc(Cn2c(=S)[nH]c(=O)c3[nH]cnc32)c1
inhibition (Amine oxidase [copper-containing] 3 (AOC3, Homo sapiens, UniProt Q16853); H2O2 production, Amplex Red; 30 µM, recombinant human enzyme): 99.8%

Repeated from above:
CN(C)CCCN1c2ccccc2Sc2ccc(C(F)(F)F)cc21
inhibition (Luciferin 4-monooxygenase; luciferase luminescence, inhibitor; cell-free; 50 µM, counter-screen): 15.2%

O=C(OC[C@H]1O[C@@H](OC(=O)c2cc(O)c(O)c(O)c2)[C@H](OC(=O)c2cc(O)c(O)c(O)c2)[C@@H](OC(=O)c2cc(O)c(O)c(O)c2)[C@@H]1OC(=O)c1cc(O)c(O)c(O)c1)c1cc(O)c(O)c(O)c1
inhibition (P4HB; insulin reduction; 20 µM): inhibited

CCN1CCCC1CNC(=O)CCC1CCN(C(=O)CSc2ncccn2)CC1 (stereo not shown)
inhibition (Luciferin 4-monooxygenase; luciferase luminescence, inhibitor; cell-free; 50 µM, counter-screen): 5.08%

COc1cc(C(=O)NS(=O)(=O)c2ccccc2C)ccc1Cc1cn(C)c2ccc(NC(=O)OC3CCCC3)cc12
inhibition (Volume-regulated anion channel subunit LRRC8C, part LRRC8A IL1 chimera (LRRC8C, Homo sapiens, UniProt Q8TDW0, C43G/S11C); ion current, inhibitor, whole-cell patch clamp; HCT LRRC8-/- cells; 3 µM, +100 mV): 9.51% and 11% and 15.2% and 6.77% and 23.8%

O=c1c(O)c(-c2ccc(O)cc2)oc2ccccc12
inhibition (Palmitoyl-protein thioesterase 1; Spectrum Collection screen; concentration not given, with: substrate 20 µM): 64.2%

N=C(N)c1ccc(OCCCCCOc2ccc(C(=N)N)cc2)cc1
inhibition (Vitamin K-dependent protein C (PROC, Homo sapiens, UniProt P04070); concentration not given): > 90%

COc1ccc(S(=O)(=O)N(CC(=O)O)Cc2ccc(CN(CC(=O)O)S(=O)(=O)c3ccc(OC)cc3)c3ccccc23)cc1
inhibition (Kelch-like ECH-associated protein 1, Kelch domain (KEAP1, Homo sapiens, UniProt Q14145); binding, fluorescence polarization competition; 50 µM): no inhibition
